Experimental data gathered from unrelated publications.
Parts stem from different laboratories: compare values within a part only. Changes are numbered by the printed parent chain.
UniProt Q9P289, sequence (whole entry, looked up): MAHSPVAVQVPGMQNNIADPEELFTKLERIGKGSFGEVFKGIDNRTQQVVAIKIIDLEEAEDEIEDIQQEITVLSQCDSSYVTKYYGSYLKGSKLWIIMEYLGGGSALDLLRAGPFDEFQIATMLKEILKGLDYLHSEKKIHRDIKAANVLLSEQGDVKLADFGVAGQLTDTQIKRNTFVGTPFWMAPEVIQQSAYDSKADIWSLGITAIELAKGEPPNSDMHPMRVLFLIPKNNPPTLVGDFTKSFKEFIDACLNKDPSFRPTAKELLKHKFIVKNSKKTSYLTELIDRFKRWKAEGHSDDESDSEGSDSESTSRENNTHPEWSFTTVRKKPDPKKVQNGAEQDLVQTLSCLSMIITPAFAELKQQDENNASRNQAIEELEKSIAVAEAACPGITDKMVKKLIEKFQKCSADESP

Series 1 — target: CCNF, cyclin fold, Cln2 fusion (human); method: yeast growth competition, sequencing; sample: yeast; setting: strong parent motif; baseline: not given; direction: higher = stronger binding; parent: viral docking peptide; CKVKRKLFGSENI
`CKVKKKLLGSENI [R5K F8L]` — result for “normalised enrichment score”: 1.22.
Under “normalised enrichment score”, `CKVKRKLFASENI [G9A]` is recorded as 6.98.
Under “normalised enrichment score”, `CKAKRKLFGSENI [V3A]` is recorded as 7.21.
Under “normalised enrichment score”, `CKVKRKAFGSENI [L7A]` is recorded as 2.05.
`CKVARKLFGSENI [K4A]`: “normalised enrichment score” 7.81.
`CKVKRALFGSENI [K6A]` — result for “normalised enrichment score”: 7.86.
Under “normalised enrichment score”, `CKVKAKAFGSENI [R5A L7A]` is recorded as 0.484.
`CAVKRKLFGSENI [K2A]`: “normalised enrichment score” 8.11.
`AKVKRKLFGSENI [C1A]`: “normalised enrichment score” 7.98.

Series 2 — read-out: peptide-MHC binding; form: peptide; concentration: concentration not given
Target: HLA class I histocompatibility antigen, A alpha chain, allele A*26:03 (Homo sapiens, UniProt P04439)
`SEVKFKYVL` — result for binding: “inactive”.
Under binding, `EEIRRIWRQ` is recorded as “inactive”.
Under binding, `FIYFGKKQY` is recorded as “inactive”.
Under binding, `IYWLIFWRF` is recorded as “inactive”.
Under binding, `IQFMHEQGY` is recorded as “inactive”.
`ALFHKVQSY` — result for binding: “inactive”.
`TMLYNKMEF`: binding “inactive”.
`LFNTIATLY` — result for binding: “inactive”.
`LTFLHTLYK` — result for binding: “inactive”.
Under binding, `YWMGGTTYF` is recorded as “inactive”.
`IEFIEVVRL`: binding “inactive”.
Under binding, `VQKVNPAPK` is recorded as “inactive”.
`TYSPALNKM`: binding “inactive”.
`NRLKPRDFK`: binding “inactive”.
`SYLIRALTL`: binding “inactive”.
Under binding, `THYSGNIVH` is recorded as “inactive”.
`ETRYSWAIL`: binding “inactive”.
Under binding, `KRINSLIKY` is recorded as “inactive”.

Series 3 — method: protein-binding microarray; form: double-stranded DNA, one strand shown; sample: in vitro; concentration: not given; direction: higher = stronger binding
Target: Hepatocyte nuclear factor 3-beta, forkhead domain (FOXA2, Homo sapiens, UniProt Q9Y261, residues 142-269)
Setting: k-mer, scored over probes, only values ≥0.25
Residues (chain): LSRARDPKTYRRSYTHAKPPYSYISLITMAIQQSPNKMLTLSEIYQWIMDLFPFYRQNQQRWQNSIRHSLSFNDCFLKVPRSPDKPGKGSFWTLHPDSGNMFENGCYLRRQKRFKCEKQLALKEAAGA
For `TACTGTGA`, the E-score was 0.261.
`TACTACGA` gave an E-score of 0.255.
`AGTTATTA` has an E-score of 0.255.
With `AATTTATA` the E-score was 0.366.
`AGAGGTAT` has an E-score of 0.262.
With `ACAACATG` the E-score was 0.303.
`ATATCAAA` has an E-score of 0.27.
For `ACAGTTAT`, the E-score was 0.272.

Mixed results
`COc1ccc2c(c1)/C(=C/c1cnc[nH]1)C(=O)N2` gave a remaining activity of 88.5% (Serine/threonine-protein kinase 26 (STK26, Homo sapiens, UniProt Q9P289); enzyme activity, inhibitor; 0.5 µM; baseline: control).

Some of these lines once more (series 1):
Under “normalised enrichment score”, `CKAKRKLFGSENI [V3A]` is recorded as 7.21.
Under “normalised enrichment score”, `CKVKRKAFGSENI [L7A]` is recorded as 2.05.
`CKVARKLFGSENI [K4A]`: “normalised enrichment score” 7.81.
